Experimental data pooled from the literature.
Parts stem from different laboratories: compare values within a part only. Substitutions count along the parent as printed.

Block 1
Target: Hepatocyte nuclear factor 3-alpha (Foxa1, Mus musculus, UniProt P35582, residues 1-468, full length assumed)
UniProt P35582, sequence (whole entry, looked up): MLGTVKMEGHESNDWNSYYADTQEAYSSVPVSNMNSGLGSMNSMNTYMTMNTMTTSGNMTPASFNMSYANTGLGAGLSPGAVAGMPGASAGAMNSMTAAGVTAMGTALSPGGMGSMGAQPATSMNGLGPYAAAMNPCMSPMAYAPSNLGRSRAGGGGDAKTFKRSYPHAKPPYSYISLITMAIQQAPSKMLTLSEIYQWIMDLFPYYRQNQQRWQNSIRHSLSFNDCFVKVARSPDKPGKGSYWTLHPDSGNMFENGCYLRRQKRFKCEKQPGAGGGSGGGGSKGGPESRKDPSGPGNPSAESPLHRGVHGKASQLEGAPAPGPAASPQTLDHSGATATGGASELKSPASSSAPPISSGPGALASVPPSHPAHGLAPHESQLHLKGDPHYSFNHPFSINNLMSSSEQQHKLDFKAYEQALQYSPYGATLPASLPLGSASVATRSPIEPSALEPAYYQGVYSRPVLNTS
Method: EMSA with sequencing
Molecule type: double-stranded DNA, one strand shown
Medium: in vitro
Tested at: 10 and 20 nM
Notes: whole designed probe, mean of two concentrations, ends assumed
Relative to: negative control set to 0
Reading: higher = stronger binding
For `GTGAGCGGTGCCCATTGATGGGGAACGACGGGCACCAGGAGCCCTGTGTCCTCTGCCTTGCAGGTGTTTAGGGAACATTGTTCAGACTGGAAGGAAGAGCGAGCTCAAAATGCCCTTTCTGTTTACTCTGCTGGGAAGGATATGAAGCCAAACAGAACCAGCTACGGGAGTCTTTCGACCGCAAGACAAAAGGTCCTTTGCCCCCACTACCTGCAACTTTTTCACTGGGATCGTGGGGAC`, “normalised bound fraction” read 0.266 ratio.
`GTGAGCGGTGCCCATTGATGGGGAACCTCGGAATTTAGATACATTAACCAGCTTTTCAGCAAATGTCACTTACCATAAGTTAGTTATTGTTTGTTTGTTTTTTGGGTATGTCAATTATATGTAAACATGGGGAAGCATTTCTAATTAATGTATTCATCAAATGTTATTTGTTTTAAAATAATTTTATTGTCCTTCATTACTAGGTTCTAAAATTGATATTTTCACTGGGATCGTGGGGAC`: “normalised bound fraction” 0.539 ratio.
For `GTGAGCGGTGCCCATTGATGGGGAACCTGAGGTCAGGAGGCCGGCATGCGTGACCCTTTGTCTCTGGGAGTCCAGATTTCCTAATGCAGGGCTCTTTCTAACACAGAAAGCAAGGTTGAGTAATTTCATGAGCTCATGCTCTGTTGGCACGTAGGGCATTGCTGTGTTGATTCACTCATGGAAACAGGAATGCTTCTGTACACCCTGTGCTTGTAACGTTTTCACTGGGATCGTGGGGAC`, “normalised bound fraction” read -0.0235 ratio.

Block 2
Target: ABI1, truncated, D143A, DHFR fusion (Arabidopsis thaliana)
Method: DHFR PCA, deep sequencing
Medium: yeast
Notes: methotrexate growth selection, single substitutions
Together with: (+)-ABA 0.0091 µM
Relative to: wild-type fitted maximum
Reading: higher = stronger binding
Starting sequence: PYL1, truncated, DHFR fusion (Arabidopsis thaliana); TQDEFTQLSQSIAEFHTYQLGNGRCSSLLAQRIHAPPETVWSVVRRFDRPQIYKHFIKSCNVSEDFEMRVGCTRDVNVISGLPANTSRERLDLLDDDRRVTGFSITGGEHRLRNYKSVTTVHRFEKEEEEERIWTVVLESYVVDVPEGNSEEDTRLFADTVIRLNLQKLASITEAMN
`R32Y` — result for “relative binding score”: 17.9%.
`R45M` — result for “relative binding score”: -5.71%.
`S171N`: “relative binding score” 31.8%.
`P36C` — result for “relative binding score”: 5.65%.
`L169A` — result for “relative binding score”: -2.05%.
`E174Q` — result for “relative binding score”: 0.14%.
Under “relative binding score”, `L164N` is recorded as -0.804%.
`R74P`: “relative binding score” -5.73%.
Under “relative binding score”, `S26D` is recorded as -0.874%.
`S171T`: “relative binding score” 40.5%.
Under “relative binding score”, `G23M` is recorded as 0.889%.
`V136W`: “relative binding score” -5.66%.
For `R88M`, “relative binding score” read 1.05%.
For `V121W`, “relative binding score” read 1.06%.

Block 3
Target: CCND3, cyclin fold, Cln2 fusion (human)
Method: yeast growth competition, sequencing
Medium: yeast
Notes: weak parent motif
Relative to: not given
Reading: higher = stronger binding
Starting sequence: CDKN1C docking peptide (human); TSACRSLFGPVDH
`TSACRSLFGPADH [V11A]`: “normalised enrichment score” 0.132.
Under “normalised enrichment score”, `TSACRSLFGPVAH [D12A]` is recorded as 0.16.
`ASACRSLFGPVDH [T1A]` — result for “normalised enrichment score”: 0.144.
For `TSACRSLLGPVDH [F8L]`, “normalised enrichment score” read 0.139.
For `TSAARSLFGPVDH [C4A]`, “normalised enrichment score” read 0.121.
`TSACRSLFGAVDH [P10A]`: “normalised enrichment score” 0.127.
`TSACASLFGPVDH [R5A]`: “normalised enrichment score” 0.0552.

Block 4
Target: Histone acetyltransferase KAT6A, both winged helices, GST fusion (KAT6A, Homo sapiens, UniProt Q92794, residues 1-181)
Method: protein binding microarray
Molecule type: double-stranded DNA, one strand shown
Medium: in vitro
Tested at: not given
Notes: 8-mer, flanks averaged, mean of 2 arrays, mostly near background
Relative to: not given
Reading: higher = stronger binding
Construct (chain): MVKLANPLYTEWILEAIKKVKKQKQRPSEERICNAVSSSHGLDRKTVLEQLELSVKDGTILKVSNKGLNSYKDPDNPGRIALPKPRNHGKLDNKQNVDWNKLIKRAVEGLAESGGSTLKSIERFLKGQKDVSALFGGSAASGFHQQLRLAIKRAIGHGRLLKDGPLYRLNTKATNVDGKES
With `GTAGGGAA` the E-score was -0.0697.
With `CGTGGAAG` the E-score was 0.138.
`GAAAGGCA` has an E-score of -0.0915.
The E-score of `AGTTCCCG` is reported as 0.235.
`GTGCAAGA` gave an E-score of 0.0142.
The E-score of `CGGGCGCC` is reported as 0.314.
`GGCTCACA` gave an E-score of -0.0454.
The E-score of `CAGGAACC` is reported as -0.0887.
`ACGGAACC` gave an E-score of 0.294.
For `CCACGTTA`, the E-score was -0.0966.
With `CCGATGAG` the E-score was 0.0358.
`CAGCTACC` gave an E-score of -0.198.
`AAAAATGT` has an E-score of 0.0294.
`CAGGACGA` has an E-score of -0.0703.
The E-score of `GAAGCTGC` is reported as 0.00542.
With `CAAGCTTA` the E-score was -0.0269.
The E-score of `CAATTACA` is reported as 0.00249.
The E-score of `GTTCGCTA` is reported as 0.0381.
With `TATTTGAA` the E-score was -0.0176.
For `CTTGAAGA`, the E-score was -0.204.
`AGACAACC` gave an E-score of -0.0254.
`GGTTCAAC` gave an E-score of 0.0811.
